Published values of several laboratories.
Protocols differ between the studies behind these lines. ± marks the error that the study gave.
Route: intravenous

SMILES	method	host	matrix	dose	time	together with	tissue uptake
O=C(NCC1OC2CCC=CCCC2O1)c1ccc([18F])nc1 (stereo not shown)		healthy female BALB/c nude mice	large intestine	7.4 MBq per mouse	60 min		5.6 ± 2 %ID/g
COc1ccc(Nc2nc(Nc3ccc(OCCOCC[18F])cc3)ncc2Br)cc1		ICR mice, S180 tumour-bearing	muscle	370 kBq	30 min		2.39 ± 0.41 %ID/g
CCCC[C@H](NC(=O)CNC(=O)CNC(=O)[C@H](CCCCNC(=O)[C@H](CC(=O)O)NC(=O)C(C)c1ccc(CC(C)C)cc1)NC(=O)CN1CCN(CC(=O)O)CCN(CC(=O)O)CCN(CC(=O)O)CC1)C(=O)N[C@H]1CC(=O)NCCCC[C@@H](C(N)=O)NC(=O)[C@H](Cc2c[nH]c3ccccc23)NC(=O)[C@H](CCCNC(=N)N)NC(=O)[C@@H](Cc2ccccc2)NC(=O)[C@H](Cc2c[nH]cn2)NC1=O (stereo partly shown) [lutetium-177 labelled]		C57 mice, tumour-bearing	kidneys	0.037 MBq	0.5 h		14.1 ± 1.39 %ID/g
CC(C)C[C@H](NC(=O)[C@@H](CCCCNC(=O)[C@@H](Cc1ccccc1)NC(=O)CCCCCCCNC(=O)CN1CCN(CC(=O)O)CCN(CC(=O)O)CCN(CC(=O)O)CC1)NC(=O)[C@H](Cc1ccc(O)cc1)NC(=O)[C@H](CO)NC(=O)[C@H](Cc1c[nH]c2ccccc12)NC(=O)[C@H](Cc1c[nH]cn1)NC(=O)[C@@H]1CCC(=O)N1)C(=O)N[C@@H](CCCNC(=N)N)C(=O)N1CCC[C@H]1C(=O)NCC(N)=O [indium-111 labelled]	biodistribution	male athymic nude mice, DU-145 prostate cancer xenograft	pancreas	0.037 MBq	0.5 h post-injection		0.74 ± 0.26 %ID/g
O=C(NCC1OC2CCC=CCCC2O1)c1ccc(COCCOCCOCC[18F])cc1 (stereo not shown)		healthy female BALB/c nude mice	liver	7.4 MBq per mouse	30 min		4.5 ± 0.2 %ID/g
O=C([O-])CN1CCN(CC(=O)[O-])CCN(CC(=O)NC[C@H]2CC[C@H](C(=O)N[C@H](Cc3cnc4ccccc4c3)C(=O)NCCCC[C@H](NC(=O)N[C@@H](CCC(=O)O)C(=O)O)C(=O)O)CC2)CCN(CC(=O)[O-])CC1.[64Cu+2]	ex vivo gamma counting	22Rv1 tumour-bearing mice	spleen	0.74 MBq	2 h post-injection		5.86 %ID/g
CCCC[C@H](NC(=O)CCCCCCCNC(=O)CN1CCN(CC(=O)O)CCN(CC(=O)O)CC1)C(=O)N[C@H]1CC(=O)NCCCC[C@@H](C(N)=O)NC(=O)[C@H](Cc2c[nH]c3ccccc23)NC(=O)[C@H](CCCNC(=N)N)NC(=O)[C@@H](Cc2ccccc2)NC(=O)[C@H](Cc2c[nH]cn2)NC1=O [fluorine-18 labelled]		C57 mice, B16/F10 melanoma	stomach		1 h	NDP-MSH 10 µg	0.4 ± 0.11 %ID/g
Cc1cc(C)n(CCN(CCN)CCCCCCNC(=O)[C@@H](N)Cc2c[nH]cn2)n1.[99Tc+].[C-]#[O+].[C-]#[O+].[C-]#[O+]		BALB/c nude mice, A549 xenograft	lung		4 h		0.72 ± 0.24 %IA/g
COc1ccc(Nc2nc(Nc3ccc(OCCOCCOCC[18F])cc3)ncc2Br)cc1		ICR mice, S180 tumour-bearing	tumor	370 kBq	5 min		3.08 ± 0.2 %ID/g
CCCC[C@H](NC(=O)COCCOCCNC(=O)CN1CCN(CC(=O)O)CCN(CC(=O)O)CC1)C(=O)N[C@H]1CC(=O)NCCCC[C@@H](C(N)=O)NC(=O)[C@H](Cc2c[nH]c3ccccc23)NC(=O)[C@H](CCCNC(=N)N)NC(=O)[C@@H](Cc2ccccc2)NC(=O)[C@H](Cc2c[nH]cn2)NC1=O [fluorine-18 labelled]		C57 mice, B16/F10 melanoma	intestines	0.37 MBq	2 h		0.78 ± 0.14 %ID
